# Assay results gathered from unrelated publications.
# Each line is one published result; not all experiments were run side by side. Several values in a cell are separate wells, animals, samples, runs or records. ± marks the error that the study gave.
Structure (SMILES),cell line,assay,conditions,scale,quantity,result
O=C(C[Se]C(=O)c1ccc2ccccc2c1)Nc1cccc(C(F)(F)F)c1,NCI60 colon subpanel,NCI60 five-dose screen,,,mean TGI,7840 nM
CCN(CC)CCNC(=S)Nc1ccc2nc(N3CCN(CC)CC3)cc(C)c2c1,U2OS HDR-GFP reporter,"homologous recombination repair, flow cytometry",5 µM,,GFP-positive cells,6.98%
COC(=O)c1cc(NC2=NC(=O)C(=Cc3ccc(N(C)C)cc3)S2)ccc1OC(C)=O,MCF7,"GC-MS, measured: Palmitic acid",1 µM,relative to: DMSO,metabolite level,0.21 fold change
CCn1nc(Cl)c2c1-c1cnc(N)c(c1)O[C@H](C)c1cc(F)ccc1-c1nn(C)cc1C2,Ba/F3 EML4-ALK v1,cell viability,,,Emax,99.3%
O=S1(=O)CC2CCCCC2CS1 (stereo not drawn),MDA-MB-468,MTT,"0.391 µM, 72 h",,viability,87.6%
Cc1ccc(-n2cc(CSc3nc4ccccc4n3Cc3cn(-c4ccc(C)cc4)nn3)nn2)cc1,MDA-MB-231,MTT,15.6 ppm,,viability,24.3%
Cc1ncsc1-c1ccc(C(C)NC(=O)C2CC(O)CN2C(=O)C(NC(=O)CCCCCCCCCCN2CCCC(Nc3ncc(Cl)c(Nc4ccccc4S(=O)(=O)C(C)C)n3)C2)C(C)(C)C)cc1 (stereo not drawn),22Rv1,"RNA-seq, measured: RFWD3 mRNA",concentration not given,relative to: DMSO,log2 fold change,-1.97
NC(Cc1ccccc1)C(=O)N1CC(=Cc2ccc(Cl)c(Cl)c2)C(=O)C(=Cc2ccc(Cl)c(Cl)c2)C1 (stereo not drawn),BRD4-HiBiT cells,"BRD4 degradation rescue, inhibitor","2 h, together with: dBET6 500 nM",,EC50,1180 nM
CC(C)Cc1ccc(C(C)C(=O)[Se]CC(=O)Nc2cccc(C(F)(F)F)c2)cc1 (stereo not drawn),NCI60 colon subpanel,cell growth,"10 µM, 48 h, one-dose",,mean growth percent,-46%
CNS(=O)(=O)Nc1nccc(Cc2c(C)c3ccc(Oc4ncccc4F)cc3oc2=O)c1F,H9,cell viability,7 days,,IC50,> 1000 nM
CCCC[C@H](NC(C)=O)C(=O)N[C@@H](CCC(=O)O)C(=O)N[C@@H](CO)C(=O)N[C@@H](CC(=O)O)C(=O)COC(=O)c1c(C)cccc1C,THP-1 cells expressing FKBP-caspase-11,"pyroptosis, inhibitor","concentration not given, together with: B/B dimerizer",,LDH release,43.1% and 42.8% and 67.6%
CC(C)c1ccc(N(C)c2ccc3c(c2)OCC[C@H]3CNc2cnccc2C(=O)O)cc1,Calu-6,"cell viability, CellTiter-Glo",7 days,,IC50,14.9 nM
CNC(=O)CCN(Cc1ccc(C(F)F)cc1)C(=O)c1cc2c(OC)ccc(-c3ccc(=O)n(C)c3)c2s1,murine AML cells,"BRD4 chromatin occupancy, ChIP-seq, measured: BRD4 at Irf2bp2 locus","concentration not given, chr8:129222581-129232059","relative to: DMSO, higher = more occupancy",BRD4 ChIP-seq tag count,50.1 a.u.
CCN(CC)CC(=O)Nc1cccc(-n2cc(-c3ccc4ccc(-c5cn(-c6cccc(NC(=O)CN(CC)CC)c6)nn5)cc4c3)nn2)c1,RCC4,"PCR angiogenesis array, measured: CDH5","5 x IC50, 6 h, normoxia",relative to: untreated,fold regulation,1.62
O=C(C[Se]C(=O)C12CC3CC(CC(C3)C1)C2)Nc1cccc(C(F)(F)F)c1,NCI60 colon subpanel,cell growth,"10 µM, 48 h, one-dose",,mean growth percent,25.4%
COc1cc(N2CCN(C(=O)C3CCCN3)CC2)ccc1Nc1ncc(Cl)c(Nc2ccccc2P(C)(C)=O)n1 (stereo not drawn),NCI-H3122,annexin V/PI flow cytometry,"500 nM, 24 h",,late apoptotic cells,3.16% and 3.74% and 3.43%
CN1CCCNC(=O)c2cccc(c2)C(=O)NCCCN(C)CCCNc2cccc3c2C(=O)c2cccc(c2C3=O)NCCC1,SAS,"RNA-Seq, measured: FANCL mRNA","1 µM, 6 h",relative to: untreated cells,log2 fold change,-0.967
Cn1c(=O)n(C2CCC(=O)NC2=O)c2ccc(C3CCN(CC(=O)Nc4cccc(CS(=O)(=O)N5CC[C@H](Nc6cccc(-c7sc(C(=O)O)c(OCC(=O)O)c7Cl)c6)CC5(C)C)c4)CC3)cc21 (stereo partly drawn),B16-F10,"HTRF, measured: phospho-STAT1 Tyr701","0.005 µM, together with: IFN-γ",relative to: min-max normalised,pSTAT1 level,3.28% and 4.36% and 4.23% and 4.65% and 4.26% and 4.49%
COc1cccc(OC)c1-c1cc(C(=O)NC2(C(=O)O)C3CC4CC(C3)CC2C4)nn1-c1ccc(C(=O)N(C)CCOCCN(C)C(=O)[C@H](CCCCNC(=O)[C@H](CC(C)C)NC(=O)C2OC2C(=O)O)NC(=O)CN2CCN(CC(=O)[O-])CCN(CC(=O)[O-])CCN(CC(=O)[O-])CC2)cc1C(C)C.[177Lu+3] (mixture of isomers),HT-29,,"concentration not given, 30 min",relative to: added activity,surface-bound fraction,1.83 ± 0.07%
O=C(C[Se]C(=O)c1cccnc1Nc1cccc(C(F)(F)F)c1)Nc1cccc(C(F)(F)F)c1,NCI60 colon subpanel,cell growth,"10 µM, 48 h, one-dose",,mean growth percent,-56.9%
CN(C)c1ccc(-n2cc(COC(=O)[C@@]3(C)C=C(C(=O)OC(C)(C)C)C(=O)CC3)nn2)cc1,HeLa,quantitative western blot,"concentration not given, 10 (unit not given), together with: EGF",,pRSK/tubulin ratio,0.263
Cc1c2ccnc(C(=O)N[C@H](C)CN(C)C)c2cc2c3cc(OCCCN4CCN(C)CC4)ccc3n(C)c12,patient-derived LCL,electrochemiluminescent immunoassay,"concentration not given, outcome decreased, dose-dependent",,poly(GP) level,decreased
C#CCCCC(F)/C=C/C(=O)NC1(c2ccc(-c3nc4ccn5c(=O)[nH]nc5c4cc3-c3ccccc3)cc2)CCC1 (stereo not drawn),MDA-MB-468,"flow cytometry, PI staining","EC60 concentration, 72 h, DMSO 39.2",,cells in G0/G1 phase,46.4%
Cn1ncc(-c2ccc3c(=O)[nH]nc(CN)c3c2)c1-c1c(F)c(Cl)cc(OC2CC2)c1C#N,Malme-3M,"cell viability, inhibitor, CellTiter-Glo","120 h, baseline-subtracted",,IC50,80 nM
Cn1ncc2cc(-c3cncc(Cl)c3N3CCC4(CCNC4=O)CC3)ccc21,LS174T,"gene expression, microarray, measured: CMBL mRNA","concentration not given, 24 h",relative to: untreated cells,log2 fold change,2.81
CC(C)n1nc(C(F)F)cc1C(=O)Nc1ccc([C@H]2[C@@H](O)CCCc3cncn32)c(-c2ccccc2)c1,BRD4-HiBiT cells,"BRD4 degradation rescue, inhibitor","4 h, 50% degradation rescued, together with: dBET6 500 nM",,EC50,173 nM
COC1CN([C@H]2CC[C@H]([C@@]3(C)Oc4c(Cl)cc(C(=O)NCc5c(SC)cc(C)[nH]c5=O)c(C)c4O3)CC2)C1,T24,"cell growth or viability, ATP luminescence",12 days,,GI50,> 10000 nM
CN1CC[C@@H](COc2cnc(C#N)cc2-c2ccn3nc(NC(=O)C4CC4)cc3c2)C1,human monocyte-derived macrophages,"cytokine release increase, measured: IL-10",together with: LPS,,EC50,570 nM
COc1ccccc1-c1ccncc1C(=O)Nc1nnc(OCc2ccc(Cl)cc2)s1,PEO1 BRCA2-mutant,,"0.5 µM, together with: olaparib 0.25 µM",,colony survival,4.84%
O=C(O)C1OC(Oc2c(-c3ccccc3)oc3cc(O)ccc3c2=O)C(O)C(O)C1O (stereo not drawn),MDCKII-UGT1A1/MRP2 cells,"glucuronide efflux, substrate",,,Jmax,6.07 ± 1.94 pmol/mg/min
COc1ncccc1CN(C(=O)OCc1ccc([N+](=O)[O-])s1)[C@H]1C[C@@H]1c1ccccc1 (racemic),THP-1 cells expressing NTR,MTS,72 h,,GI50,12100 ± 1300 nM
CCN(C(=O)c1cc(F)ccc1Oc1nncnc1N1CCC2(C1)CN([C@H](CCCN(C)CCOC)C(C)C)C2)C(C)C,NCI-H358M,cell growth or viability,7 days,,GI50,> 10000 nM
CSC(=S)N/N=C(\C)c1ccc(Nc2nnc(-c3ccc(Cl)cc3)c3ccccc23)cc1,HepG2,"cell growth or viability, MTT","2.5 µM, 24 h",,viability,7.17%
CO[C@@H]1[C@@H](OC(N)=O)[C@@H](O)[C@H](Oc2ccc3c(O)c(NC(=O)c4ccc(O)c(CC=C(C)C)c4)c(=O)oc3c2C)OC1(C)C,DLD-1 parental,,"200 µM, replicate 1",,colony count,0.1
C=CC(=O)N1[C@@H](c2ccc3c(c2)OCO3)c2[nH]c3ccccc3c2C[C@H]1C(=O)NC1CC1,rat DRG neurons,,"30 µM, 48 h, together with: vincristine 40 nM",,neuron degeneration,16.9% and 16.1%
O=C(Nc1nnc2c1c(-c1ccc(Cl)cc1)nc1sc(=Cc3ccco3)c(=O)n12)c1ccccc1 (mixture of isomers),UO-31,SRB,"10 µM, NCI60 single-dose screen",relative to: untreated,cell growth,29.6%

# Some of these lines once more:
Structure (SMILES),cell line,assay,conditions,scale,quantity,result
COC1CN([C@H]2CC[C@H]([C@@]3(C)Oc4c(Cl)cc(C(=O)NCc5c(SC)cc(C)[nH]c5=O)c(C)c4O3)CC2)C1,T24,"cell growth or viability, ATP luminescence",12 days,,GI50,> 10000 nM
CCN(C(=O)c1cc(F)ccc1Oc1nncnc1N1CCC2(C1)CN([C@H](CCCN(C)CCOC)C(C)C)C2)C(C)C,NCI-H358M,cell growth or viability,7 days,,GI50,> 10000 nM
O=C(O)C1OC(Oc2c(-c3ccccc3)oc3cc(O)ccc3c2=O)C(O)C(O)C1O (stereo not drawn),MDCKII-UGT1A1/MRP2 cells,"glucuronide efflux, substrate",,,Jmax,6.07 ± 1.94 pmol/mg/min
O=S1(=O)CC2CCCCC2CS1 (stereo not drawn),MDA-MB-468,MTT,"0.391 µM, 72 h",,viability,87.6%
CC(C)c1ccc(N(C)c2ccc3c(c2)OCC[C@H]3CNc2cnccc2C(=O)O)cc1,Calu-6,"cell viability, CellTiter-Glo",7 days,,IC50,14.9 nM
COc1cccc(OC)c1-c1cc(C(=O)NC2(C(=O)O)C3CC4CC(C3)CC2C4)nn1-c1ccc(C(=O)N(C)CCOCCN(C)C(=O)[C@H](CCCCNC(=O)[C@H](CC(C)C)NC(=O)C2OC2C(=O)O)NC(=O)CN2CCN(CC(=O)[O-])CCN(CC(=O)[O-])CCN(CC(=O)[O-])CC2)cc1C(C)C.[177Lu+3] (mixture of isomers),HT-29,,"concentration not given, 30 min",relative to: added activity,surface-bound fraction,1.83 ± 0.07%
